# Published values collected from several papers.
# Numbered parts are unrelated; each lists some results of a single study.
# UniProt P53355, sequence (whole entry, looked up): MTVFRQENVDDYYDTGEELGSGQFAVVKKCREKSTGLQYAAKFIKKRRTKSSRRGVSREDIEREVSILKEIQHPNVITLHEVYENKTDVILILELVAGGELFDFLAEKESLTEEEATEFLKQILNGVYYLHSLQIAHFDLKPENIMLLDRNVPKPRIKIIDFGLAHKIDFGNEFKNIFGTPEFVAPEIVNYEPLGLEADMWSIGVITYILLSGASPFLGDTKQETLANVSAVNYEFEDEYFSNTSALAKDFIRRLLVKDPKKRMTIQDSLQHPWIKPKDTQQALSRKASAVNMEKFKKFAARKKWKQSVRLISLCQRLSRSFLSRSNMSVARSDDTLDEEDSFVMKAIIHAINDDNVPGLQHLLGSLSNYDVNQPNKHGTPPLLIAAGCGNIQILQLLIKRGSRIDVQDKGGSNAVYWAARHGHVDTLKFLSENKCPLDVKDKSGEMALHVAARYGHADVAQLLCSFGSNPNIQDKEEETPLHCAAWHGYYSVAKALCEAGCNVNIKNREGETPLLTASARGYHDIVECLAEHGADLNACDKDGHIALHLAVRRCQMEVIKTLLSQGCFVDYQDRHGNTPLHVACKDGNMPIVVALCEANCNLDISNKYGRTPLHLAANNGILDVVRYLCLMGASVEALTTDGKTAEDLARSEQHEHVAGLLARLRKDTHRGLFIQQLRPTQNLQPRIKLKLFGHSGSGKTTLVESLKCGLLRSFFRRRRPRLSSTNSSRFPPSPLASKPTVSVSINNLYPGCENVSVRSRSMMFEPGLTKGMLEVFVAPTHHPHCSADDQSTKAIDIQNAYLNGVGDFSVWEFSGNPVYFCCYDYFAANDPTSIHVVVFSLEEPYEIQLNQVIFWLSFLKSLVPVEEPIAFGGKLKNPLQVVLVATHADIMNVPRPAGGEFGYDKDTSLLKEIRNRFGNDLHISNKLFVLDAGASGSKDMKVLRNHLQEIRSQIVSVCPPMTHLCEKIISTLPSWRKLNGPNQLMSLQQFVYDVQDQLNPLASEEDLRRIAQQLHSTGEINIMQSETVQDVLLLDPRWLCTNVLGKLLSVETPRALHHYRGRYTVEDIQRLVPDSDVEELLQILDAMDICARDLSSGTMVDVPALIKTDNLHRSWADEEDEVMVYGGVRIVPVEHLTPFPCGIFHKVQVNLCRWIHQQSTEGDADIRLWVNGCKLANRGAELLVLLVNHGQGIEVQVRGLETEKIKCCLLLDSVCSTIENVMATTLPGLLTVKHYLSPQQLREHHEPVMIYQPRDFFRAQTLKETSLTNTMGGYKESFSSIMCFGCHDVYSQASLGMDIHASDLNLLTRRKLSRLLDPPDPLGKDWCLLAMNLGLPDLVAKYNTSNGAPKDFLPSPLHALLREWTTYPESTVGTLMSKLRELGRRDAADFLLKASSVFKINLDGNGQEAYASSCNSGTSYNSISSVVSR
# UniProt Q13557, sequence (whole entry, looked up): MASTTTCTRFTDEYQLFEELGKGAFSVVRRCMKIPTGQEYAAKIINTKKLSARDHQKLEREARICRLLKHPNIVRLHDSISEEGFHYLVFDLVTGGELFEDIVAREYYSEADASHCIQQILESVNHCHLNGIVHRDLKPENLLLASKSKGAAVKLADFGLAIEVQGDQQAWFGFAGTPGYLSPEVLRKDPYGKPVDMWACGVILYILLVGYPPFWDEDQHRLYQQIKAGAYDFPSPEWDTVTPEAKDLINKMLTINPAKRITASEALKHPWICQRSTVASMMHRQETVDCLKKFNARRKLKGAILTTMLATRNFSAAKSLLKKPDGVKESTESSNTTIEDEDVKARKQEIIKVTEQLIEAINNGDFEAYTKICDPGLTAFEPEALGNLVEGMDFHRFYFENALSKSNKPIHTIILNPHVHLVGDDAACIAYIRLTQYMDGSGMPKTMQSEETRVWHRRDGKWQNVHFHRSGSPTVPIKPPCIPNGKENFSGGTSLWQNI
# UniProt O43318, sequence (whole entry, looked up): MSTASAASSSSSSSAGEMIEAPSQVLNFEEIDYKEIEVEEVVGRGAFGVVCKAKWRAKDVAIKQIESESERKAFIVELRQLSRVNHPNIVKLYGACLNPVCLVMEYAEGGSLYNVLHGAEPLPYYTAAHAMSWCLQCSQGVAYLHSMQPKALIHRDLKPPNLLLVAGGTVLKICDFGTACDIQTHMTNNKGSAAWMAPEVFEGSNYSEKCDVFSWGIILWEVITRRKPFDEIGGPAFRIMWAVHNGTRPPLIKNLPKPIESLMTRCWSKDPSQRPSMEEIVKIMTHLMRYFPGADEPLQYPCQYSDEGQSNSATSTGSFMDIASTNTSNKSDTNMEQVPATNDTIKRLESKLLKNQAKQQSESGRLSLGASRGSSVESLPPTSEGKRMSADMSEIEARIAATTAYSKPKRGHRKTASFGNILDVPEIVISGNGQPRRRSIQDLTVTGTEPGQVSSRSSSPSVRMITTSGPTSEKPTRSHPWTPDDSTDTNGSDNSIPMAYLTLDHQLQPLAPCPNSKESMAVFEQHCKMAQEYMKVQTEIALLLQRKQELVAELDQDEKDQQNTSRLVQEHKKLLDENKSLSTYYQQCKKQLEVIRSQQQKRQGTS
# UniProt P28482, sequence (whole entry, looked up): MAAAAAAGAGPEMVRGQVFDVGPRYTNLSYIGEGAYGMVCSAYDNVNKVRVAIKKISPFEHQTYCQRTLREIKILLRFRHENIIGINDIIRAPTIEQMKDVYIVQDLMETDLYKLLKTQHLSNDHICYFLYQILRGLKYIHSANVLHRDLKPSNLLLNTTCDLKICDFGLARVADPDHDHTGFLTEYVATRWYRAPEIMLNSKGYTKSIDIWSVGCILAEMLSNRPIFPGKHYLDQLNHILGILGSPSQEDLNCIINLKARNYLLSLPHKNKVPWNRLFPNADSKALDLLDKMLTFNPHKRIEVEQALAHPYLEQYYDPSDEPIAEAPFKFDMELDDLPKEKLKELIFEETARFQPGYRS

# Block 1
# Structure (SMILES): C[C@@H]1CN(c2ccc(-c3cc(C(=O)NCCOCCOCCOCCOCCNC(=O)/C=C/c4[nH]cc(C(=O)N[C@@H](CC(N)=O)c5ccc(F)c(Cl)c5)c4-c4ccc(Cl)cc4F)ccc3F)cc2NC(=O)c2c[nH]c(=O)cc2C(F)(F)F)C[C@H](C)N1C
# Observed: thermal unfolding
# Method: differential scanning fluorimetry
# Tested at: 5.5 µM
# Reading: higher = more unfolded
# WDR5: WD repeat-containing protein 5 (WDR5, Homo sapiens, UniProt P61964)
# DCAF1: DDB1- and CUL4-associated factor 1 (DCAF1, Homo sapiens, UniProt Q9Y4B6)
# UniProt Q9Y4B6, sequence (whole entry, looked up): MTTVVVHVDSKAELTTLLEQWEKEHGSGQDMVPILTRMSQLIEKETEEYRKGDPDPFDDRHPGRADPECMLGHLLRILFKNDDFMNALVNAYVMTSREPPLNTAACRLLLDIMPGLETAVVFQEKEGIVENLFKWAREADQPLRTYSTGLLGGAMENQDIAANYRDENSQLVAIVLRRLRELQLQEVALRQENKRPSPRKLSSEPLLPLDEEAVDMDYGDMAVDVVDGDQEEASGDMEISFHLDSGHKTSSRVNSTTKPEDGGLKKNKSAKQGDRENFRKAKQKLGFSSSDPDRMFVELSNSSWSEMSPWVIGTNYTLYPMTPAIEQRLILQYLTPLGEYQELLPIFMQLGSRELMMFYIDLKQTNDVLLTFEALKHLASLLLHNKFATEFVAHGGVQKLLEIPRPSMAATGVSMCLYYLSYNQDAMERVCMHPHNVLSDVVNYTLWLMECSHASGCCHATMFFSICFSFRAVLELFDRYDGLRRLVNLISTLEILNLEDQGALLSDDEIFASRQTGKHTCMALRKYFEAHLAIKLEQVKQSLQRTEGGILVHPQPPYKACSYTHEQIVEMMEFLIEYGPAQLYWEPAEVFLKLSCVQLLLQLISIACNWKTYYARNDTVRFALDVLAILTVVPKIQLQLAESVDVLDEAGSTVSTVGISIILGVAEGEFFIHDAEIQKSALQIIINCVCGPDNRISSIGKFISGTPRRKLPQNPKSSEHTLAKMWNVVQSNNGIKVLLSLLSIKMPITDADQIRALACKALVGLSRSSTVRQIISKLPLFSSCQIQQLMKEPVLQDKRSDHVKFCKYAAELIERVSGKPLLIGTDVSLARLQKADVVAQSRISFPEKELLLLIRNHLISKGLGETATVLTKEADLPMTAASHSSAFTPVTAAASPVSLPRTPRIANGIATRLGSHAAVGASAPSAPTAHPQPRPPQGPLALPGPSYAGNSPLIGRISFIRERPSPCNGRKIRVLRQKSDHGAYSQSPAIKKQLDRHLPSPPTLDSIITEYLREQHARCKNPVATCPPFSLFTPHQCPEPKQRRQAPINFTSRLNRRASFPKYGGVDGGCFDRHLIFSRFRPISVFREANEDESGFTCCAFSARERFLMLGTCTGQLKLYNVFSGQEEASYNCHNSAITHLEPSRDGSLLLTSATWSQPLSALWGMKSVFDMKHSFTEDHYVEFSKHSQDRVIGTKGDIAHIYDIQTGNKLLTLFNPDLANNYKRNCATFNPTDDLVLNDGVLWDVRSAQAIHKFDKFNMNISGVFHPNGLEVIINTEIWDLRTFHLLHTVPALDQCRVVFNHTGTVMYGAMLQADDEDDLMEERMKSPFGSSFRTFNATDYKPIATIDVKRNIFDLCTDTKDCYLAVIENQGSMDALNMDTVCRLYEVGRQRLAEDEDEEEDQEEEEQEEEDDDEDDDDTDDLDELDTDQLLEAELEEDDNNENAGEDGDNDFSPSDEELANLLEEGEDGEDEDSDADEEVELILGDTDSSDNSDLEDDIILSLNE
target,temperature,SYPRO Orange fluorescence
WDR5,56.81 °C,16600 a.u.
WDR5,62.81 °C,14500 a.u.
DCAF1,85.81 °C,39300 a.u.
WDR5,85.41 °C,52700 a.u.
DCAF1,36.8 °C,10600 a.u.
DCAF1,29.6 °C,9470 a.u.
DCAF1,85.41 °C,39700 a.u.
DCAF1,38 °C,10900 a.u.

# Block 2
# Compound: CCN1/C(=C/C=C2\CCCC(/C=C/C3=[N+](CC)c4ccccc4C3(C)C)=C2NCCCCCCCCN2CCC(Nc3nc4ccccc4n3Cc3ccc(F)cc3)CC2)C(C)(C)c2ccccc21
# Cell line: U-87 MG
# Tested at: concentration not given
# Relative to: DMSO
item,log2 fold change
PTGER2 mRNA,-2.74
RORB mRNA,1.2
CNPY4 mRNA,-1.6
GRIK2 mRNA,2.9
PARM1 mRNA,2.92
PRUNE2 mRNA,-1.29
LTF mRNA,5.84
AMMECR1L mRNA,0.887
CCNL1 mRNA,0.914
LOXL1 mRNA,-2.79
LAMA5 mRNA,-1.29

# Block 3
# SMILES: Cc1ccc(O)c(C)c1-c1cnc2[nH]c(-c3cnc(N4CCC(CN5CCN(c6cc7c(cc6F)c(N6CCC(=O)NC6=O)nn7C)CC5)CC4)nc3)cc2c1C#N
# Target: Membrane-associated tyrosine- and threonine-specific cdc2-inhibitory kinase (PKMYT1, Homo sapiens, UniProt Q99640)
# Construct (Q99640 1-499): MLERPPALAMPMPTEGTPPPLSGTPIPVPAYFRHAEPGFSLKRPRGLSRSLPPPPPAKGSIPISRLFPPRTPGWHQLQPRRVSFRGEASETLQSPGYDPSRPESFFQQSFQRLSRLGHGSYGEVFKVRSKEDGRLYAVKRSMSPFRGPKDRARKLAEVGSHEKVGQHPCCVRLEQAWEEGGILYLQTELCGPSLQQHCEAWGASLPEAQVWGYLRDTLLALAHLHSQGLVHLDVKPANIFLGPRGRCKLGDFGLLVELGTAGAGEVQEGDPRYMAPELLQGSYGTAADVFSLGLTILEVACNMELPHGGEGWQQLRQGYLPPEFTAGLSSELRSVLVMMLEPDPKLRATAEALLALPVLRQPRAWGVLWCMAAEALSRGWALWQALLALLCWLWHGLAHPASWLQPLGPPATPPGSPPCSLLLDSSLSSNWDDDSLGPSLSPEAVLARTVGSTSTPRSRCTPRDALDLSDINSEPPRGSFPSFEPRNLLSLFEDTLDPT
observed,action,method,tested at,inhibition
cell-free assay,inhibitor,TR-FRET,51 pM,-3.96%
,,,5.1e-05 µM,3.21%
,,,1 µM,100%
,,,0.000152 µM,-5.89%
,,,0.3333 µM,99.7%
cell-free assay,inhibitor,TR-FRET,0.3333 µM,99.2%
cell-free assay,inhibitor,TR-FRET,37.04 nM,95.3%
cell-free assay,inhibitor,TR-FRET,4.12 nM,45.3%

# Block 4
# Structure (SMILES): CN(C1COC1)C(C)(C)/C=C(\C#N)C(=O)N1CCC[C@H]1Cn1nc(-c2ccc(Oc3ccccc3)cc2F)c2c(N)ncnc21
# Observed: kinase activity
# CDK9 with cyclin T1: Cyclin-dependent kinase 9, with cyclin T1 (CDK9, Homo sapiens, UniProt P50750)
# UniProt P50750, sequence (whole entry, looked up): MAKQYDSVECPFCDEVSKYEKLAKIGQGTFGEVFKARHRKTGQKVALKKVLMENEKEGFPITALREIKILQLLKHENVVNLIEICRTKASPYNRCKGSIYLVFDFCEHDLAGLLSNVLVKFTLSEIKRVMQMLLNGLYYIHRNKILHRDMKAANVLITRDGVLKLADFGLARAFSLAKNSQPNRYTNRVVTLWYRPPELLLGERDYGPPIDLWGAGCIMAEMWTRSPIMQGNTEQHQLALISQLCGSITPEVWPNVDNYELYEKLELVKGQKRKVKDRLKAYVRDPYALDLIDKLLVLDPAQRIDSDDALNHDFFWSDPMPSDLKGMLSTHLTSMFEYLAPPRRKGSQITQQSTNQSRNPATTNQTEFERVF
target,tested at,inhibition
"MAPK1 (Homo sapiens, UniProt P28482)",1 µM,-2%
"Mitogen-activated protein kinase kinase kinase 7, with TAB1 (MAP3K7, Homo sapiens, UniProt O43318)",1 µM,1%
"DAPK1 (Homo sapiens, UniProt P53355)",0.1 µM,4%
"BMX (Homo sapiens, UniProt P51813)",0.1 µM,94%
"STK16 (Homo sapiens, UniProt O75716)",0.1 µM,16%
"Aurora kinase A (AURKA, Homo sapiens, UniProt O14965)",1 µM,11%
"AXL (Homo sapiens, UniProt P30530)",1 µM,2%
"CSNK1G1 (Homo sapiens, UniProt Q9HCP0)",0.1 µM,0%
"FES (Homo sapiens, UniProt P07332)",1 µM,22%
"CDC42BPA (Homo sapiens, UniProt Q5VT25)",1 µM,0%
"STK24 (Homo sapiens, UniProt Q9Y6E0)",0.1 µM,3%
CDK9 with cyclin T1,0.1 µM,2%
"TEK (Homo sapiens, UniProt Q02763)",1 µM,12%
CDK9 with cyclin T1,1 µM,-3%
"CAMK2D (Homo sapiens, UniProt Q13557)",0.1 µM,4%

# Excerpt of the above (block 4):
target,tested at,inhibition
"MAPK1 (Homo sapiens, UniProt P28482)",1 µM,-2%
"Mitogen-activated protein kinase kinase kinase 7, with TAB1 (MAP3K7, Homo sapiens, UniProt O43318)",1 µM,1%
"DAPK1 (Homo sapiens, UniProt P53355)",0.1 µM,4%
"BMX (Homo sapiens, UniProt P51813)",0.1 µM,94%
"STK16 (Homo sapiens, UniProt O75716)",0.1 µM,16%
"Aurora kinase A (AURKA, Homo sapiens, UniProt O14965)",1 µM,11%
